Measurements gathered from unrelated publications.
Organism: Staphylococcus aureus

Structure (SMILES) | test | test system | conditions | MIC
CC[C@H](C)[C@H](NC(=O)[C@H](CC(C)C)NC(=O)[C@H](CCCNC(=N)N)NC(=O)[C@@H](N)CCCNC(=N)N)C(=O)N[C@@H](CCCNC(=N)N)C(=O)N[C@H](C(=O)N[C@@H](CC(C)C)C(=O)N[C@H](C(=O)NCC(=O)N1CCC[C@H]1C(=O)N[C@H](C(=O)N[C@H](C(=O)N[C@@H](Cc1ccc(O)cc1)C(=O)N[C@@H](CC(C)C)C(=O)N[C@@H](Cc1ccc(O)cc1)C(=O)N[C@@H](Cc1ccccc1)C(=O)N[C@@H](CCCCN)C(=O)N[C@@H](CC(C)C)C(=O)N[C@@H](CCC(N)=O)C(=O)N[C@@H](CC(C)C)C(=O)N[C@@H](CC(C)C)C(=O)N[C@@H](CCCCN)C(=O)N[C@@H](CCCCN)C(N)=O)[C@@H](C)CC)[C@@H](C)CC)[C@@H](C)O)[C@@H](C)O | broth microdilution | KCTC 1621, Mueller-Hinton broth | 24 h, 37 °C | 64 µM
CC[C@H](C)[C@H](NC(=O)[C@H](Cc1c[nH]c2ccccc12)NC(=O)[C@@H](NC(=O)[C@H](Cc1ccc(O)cc1)NC(=O)[C@@H]1CCCN1C(=O)[C@@H](NC(=O)[C@H](C)N)[C@@H](C)CC)[C@@H](C)CC)C(=O)N[C@@H](Cc1ccc(O)cc1)C(=O)N[C@@H](CCCNC(=N)N)C(=O)N[C@@H](CC(C)C)C(=O)N[C@@H](CC(C)C)C(=O)N[C@@H](CCCNC(=N)N)C(=O)N[C@@H](CCCCN)C(=O)NCC(N)=O | broth microdilution | ATCC 35556 | 18 h, 37 °C | > 15 µM
CC(C)C[C@H](NC(=O)[C@H](CCCCN)NC(=O)[C@H](CC(C)C)NC(=O)[C@H](CCCCN)NC(=O)[C@H](CC(C)C)NC(=O)[C@H](CCCCN)NC(=O)CNC(=O)[C@H]1CCCN1C(=O)[C@H](CCCCN)NC(=O)[C@H](CC(C)C)NC(=O)[C@H](CCCCN)NC(=O)[C@H](CC(C)C)NC(=O)[C@H](CCCCN)NC(=O)[C@@H](N)CC(C)C)C(N)=O | broth microdilution | ATCC 29737, Mueller-Hinton broth | 18 h, 37 °C | 32 µM
CC[C@H](C)[C@H](NC(=O)[C@H](CC(C)C)NC(=O)[C@H](CCCCN)NC(=O)[C@@H](NC(=O)[C@H](C)NC(=O)[C@H](CCC(=O)O)NC(=O)[C@H](Cc1c[nH]cn1)NC(=O)[C@@H](NC(=O)[C@H](CCCCN)NC(=O)[C@H](CCC(N)=O)NC(=O)[C@H](Cc1ccccc1)NC(=O)[C@@H](N)C(C)C)[C@@H](C)CC)[C@@H](C)CC)C(N)=O | CLSI broth microdilution | ATCC 25923 | 18 h, 37 °C | > 128 µM
CC[C@H](C)[C@H](NC(=O)CNC(=O)[C@H](C)NC(=O)[C@@H](NC(=O)[C@@H](NC(=O)[C@@H](NC(=O)[C@@H](NC(=O)[C@@H](NC(=O)[C@H](CC(C)C)NC(=O)[C@H](CC(C)C)NC(=O)[C@@H]1CCCN1C(=O)[C@H](Cc1c[nH]c2ccccc12)NC(=O)[C@@H](N)Cc1ccccc1)[C@@H](C)CC)[C@@H](C)O)[C@@H](C)O)C(C)C)C(C)C)C(=O)N[C@@H](CC(N)=O)C(=O)N[C@@H](CC(C)C)C(=O)N[C@@H](Cc1ccc(O)cc1)C(=O)N[C@@H](CCCNC(=N)N)C(=O)N[C@@H](C)C(=O)N[C@H](C(=O)N[C@@H](CCCNC(=N)N)C(=O)N[C@@H](CCCNC(=N)N)C(=O)N[C@@H](CCCCN)C(=O)O)[C@@H](C)CC | broth microdilution | ATCC 29213, Mueller-Hinton broth | 16 to 20 h, 37 °C | 1.69 µM
CC[C@H](C)[C@H](N)C(=O)N[C@@H](CO)C(=O)N[C@@H](Cc1ccccc1)C(=O)N[C@@H](CC(C)C)C(=O)NCC(=O)N[C@@H](CO)C(=O)N[C@@H](CCCCN)C(=O)N[C@H](C(=O)N[C@H](C(=O)N[C@H](C(=O)N[C@@H](CC(C)C)C(=O)N[C@@H](CC(C)C)C(=O)N[C@@H](CCCCN)C(=O)N[C@@H](CCCNC(=N)N)C(=O)N[C@@H](CCCNC(=N)N)C(=O)N[C@@H](CCCNC(=N)N)C(=O)N[C@@H](CCCNC(=N)N)C(=O)N[C@@H](CCCNC(=N)N)C(=O)N[C@@H](CCCNC(=N)N)C(=O)N[C@@H](CCCNC(=N)N)C(N)=O)C(C)C)C(C)C)C(C)C | broth microdilution | ATCC 29213 | highest value reported | 4 µM
CC(C)C[C@@H](NC(=O)[C@H](C)NC(=O)CNC(=O)[C@@H](NC=O)C(C)C)C(=O)N[C@@H](C)C(=O)N[C@@H](C(=O)N[C@H](C(=O)N[C@@H](C(=O)N[C@@H](Cc1c[nH]c2ccccc12)C(=O)N[C@H](CC(C)C)C(=O)N[C@@H](Cc1ccc2[nH]ccc2c1)C(=O)N[C@H](CC(C)C)C(=O)N[C@@H](Cc1c[nH]c2ccccc12)C(=O)N[C@H](CC(C)C)C(=O)N[C@@H](Cc1c[nH]c2ccccc12)C(=O)NCCO)C(C)C)C(C)C)C(C)C | broth microdilution | MSSA1, methicillin-susceptible | – | 17 µM
Nc1nc(/C(=N/O)C(=O)N[C@@H]2C(=O)N3C(C(=O)O)=C(/C=C4\CCN([C@@H]5CCNC5)C4=O)CS[C@H]23)ns1 | – | CRB, PBP4 overexpressor | – | > 64 µg/mL
CC[C@H](C)[C@H](NC(=O)[C@H](CCCCN)NC(=O)[C@H](Cc1c[nH]c2ccccc12)NC(=O)[C@H](Cc1c[nH]c2ccccc12)NC(=O)[C@H](CCCCN)NC(=O)[C@H](CCCCN)NC(=O)[C@H](CCCCN)NC(=O)[C@H](Cc1c[nH]c2ccccc12)NC(=O)[C@H](CCCCN)NC(=O)[C@H](CCCCN)NC(=O)[C@H](Cc1c[nH]c2ccccc12)NC(=O)[C@H](CCCCN)NC(=O)[C@H](CCCCN)NC(=O)[C@@H](NC(=O)[C@@H](NC(=O)[C@H](CCCCN)NC(=O)[C@@H](N)CCCNC(=N)N)[C@@H](C)CC)[C@@H](C)CC)C(=O)N[C@@H](Cc1c[nH]c2ccccc12)C(=O)N[C@@H](Cc1c[nH]c2ccccc12)C(=O)N[C@@H](CCCCN)C(=O)NCCOCCOCC(N)=O | broth microdilution | 25295 | – | 1.9 µg/mL
CC[C@H](C)[C@H](NC(=O)[C@H](CC(C)C)NC(=O)[C@H](CCCNC(=N)N)NC(=O)[C@@H](N)CCCNC(=N)N)C(=O)N[C@@H](CCCNC(=N)N)C(=O)N[C@@H](CCCCN)C(=O)N[C@@H](CC(C)C)C(=O)N[C@@H](CCCCN)C(=O)NCC(=O)N1CCC[C@H]1C(=O)N[C@@H](CCCCN)C(=O)N[C@H](C(=O)N[C@@H](Cc1ccc(O)cc1)C(=O)N[C@@H](CC(C)C)C(=O)N[C@@H](Cc1ccc(O)cc1)C(=O)N[C@@H](Cc1ccccc1)C(=O)N[C@@H](CCCCN)C(=O)N[C@@H](CC(C)C)C(=O)N[C@@H](CCC(N)=O)C(=O)N[C@@H](CC(C)C)C(=O)N[C@@H](CC(C)C)C(=O)N[C@@H](CCCCN)C(=O)N[C@@H](CCCCN)C(N)=O)[C@@H](C)CC | broth microdilution | KCTC 1621, Mueller-Hinton broth | 24 h, 37 °C | 16 µM
CC[C@H](C)[C@H](N)C(=O)N[C@@H](CCCNC(=N)N)C(=O)N[C@H](C(=O)N[C@@H](Cc1c[nH]c2ccccc12)C(=O)N[C@@H](Cc1c[nH]c2ccccc12)C(=O)N[C@@H](CCCCN)C(=O)N[C@H](C(=O)N[C@H](C(=O)N[C@@H](CCCNC(=N)N)C(=O)N[C@@H](CCCCN)C(=O)N[C@@H](Cc1c[nH]c2ccccc12)C(=O)N[C@@H](CCCCN)C(=O)N[C@@H](C)C(=O)N[C@H](C(=O)N[C@@H](Cc1c[nH]c2ccccc12)C(=O)N[C@@H](Cc1c[nH]cn1)C(N)=O)[C@@H](C)CC)C(C)C)[C@@H](C)CC)C(C)C | broth dilution | ATCC 25923, Mueller-Hinton broth | 24 h, 37 °C | 25 µM
CC[C@H](C)[C@H](N)C(=O)N[C@@H](CC(C)C)C(=O)NCC(=O)N[C@@H](CCC(=O)O)C(=O)N[C@H](C(=O)N[C@@H](Cc1c[nH]c2ccccc12)C(=O)N[C@@H](CCCCN)C(=O)NCC(=O)N[C@H](C(=O)N[C@@H](CCCCN)C(=O)N[C@@H](CC(=O)O)C(=O)N[C@H](C(=O)N[C@@H](CC(C)C)C(N)=O)[C@@H](C)CC)[C@@H](C)CC)[C@@H](C)CC | broth microdilution | ATCC 25923 | together with: human serum 10% | > 100 µM
CC[C@H](C)[C@H](NC(=O)CN)C(=O)NCC(=O)N[C@@H](C)C(=O)N[C@H](C(=O)N[C@@H](CC(C)C)C(=O)N[C@@H](CCCCN)C(=O)N[C@H](C(=O)N[C@@H](CC(C)C)C(=O)N[C@H](C(=O)N[C@H](C(=O)NCC(=O)N[C@@H](CC(C)C)C(=O)N1CCC[C@H]1C(=O)N[C@@H](C)C(=O)N[C@@H](CC(C)C)C(=O)N[C@H](C(=O)N[C@@H](CO)C(=O)N[C@@H](Cc1c[nH]c2ccccc12)C(=O)N[C@H](C(=O)N[C@@H](CCCCN)C(=O)N[C@@H](CCCNC(=N)N)C(=O)N[C@@H](CCCCN)C(=O)N[C@@H](CCCNC(=N)N)C(=O)N[C@@H](CCC(N)=O)C(=O)N[C@@H](CCC(N)=O)C(N)=O)[C@@H](C)CC)[C@@H](C)CC)[C@@H](C)O)[C@@H](C)O)C(C)C)C(C)C | broth microdilution | 29213, Mueller-Hinton broth | 24 h, 37 °C, lowest concentration, 95% inhibition, together with: BSA | 2 µM

Repeated from above:
Structure (SMILES) | test | test system | conditions | MIC
CC[C@H](C)[C@H](N)C(=O)N[C@@H](CC(C)C)C(=O)NCC(=O)N[C@@H](CCC(=O)O)C(=O)N[C@H](C(=O)N[C@@H](Cc1c[nH]c2ccccc12)C(=O)N[C@@H](CCCCN)C(=O)NCC(=O)N[C@H](C(=O)N[C@@H](CCCCN)C(=O)N[C@@H](CC(=O)O)C(=O)N[C@H](C(=O)N[C@@H](CC(C)C)C(N)=O)[C@@H](C)CC)[C@@H](C)CC)[C@@H](C)CC | broth microdilution | ATCC 25923 | together with: human serum 10% | > 100 µM
CC[C@H](C)[C@H](NC(=O)CN)C(=O)NCC(=O)N[C@@H](C)C(=O)N[C@H](C(=O)N[C@@H](CC(C)C)C(=O)N[C@@H](CCCCN)C(=O)N[C@H](C(=O)N[C@@H](CC(C)C)C(=O)N[C@H](C(=O)N[C@H](C(=O)NCC(=O)N[C@@H](CC(C)C)C(=O)N1CCC[C@H]1C(=O)N[C@@H](C)C(=O)N[C@@H](CC(C)C)C(=O)N[C@H](C(=O)N[C@@H](CO)C(=O)N[C@@H](Cc1c[nH]c2ccccc12)C(=O)N[C@H](C(=O)N[C@@H](CCCCN)C(=O)N[C@@H](CCCNC(=N)N)C(=O)N[C@@H](CCCCN)C(=O)N[C@@H](CCCNC(=N)N)C(=O)N[C@@H](CCC(N)=O)C(=O)N[C@@H](CCC(N)=O)C(N)=O)[C@@H](C)CC)[C@@H](C)CC)[C@@H](C)O)[C@@H](C)O)C(C)C)C(C)C | broth microdilution | 29213, Mueller-Hinton broth | 24 h, 37 °C, lowest concentration, 95% inhibition, together with: BSA | 2 µM
